Measurements collected from several papers.
Lines come from different studies, so protocols differ.
Route: intravenous

For `COc1cnc2cccc(N3CCc4c(cc(Cn5ccnc5)cc4-c4cn(C)nc4C(F)(F)F)C3=O)c2c1`, the C0 was 3390 ng/mL (male CD-1 mouse, plasma; 3 mg/kg).
`N#CCCC1CCN(C(=S)c2ccc(-c3cc(Cl)ccc3Cl)o2)CC1` has a C0 of 4640 ng/mL (male BALB/c mouse, plasma; 5 mg/kg).
With `O=C1C2CC3CC1CC(C(=O)N1CCN(c4ccc([N+](=O)[O-])c5ncccc45)CC1)(C3)C2` the C0 was 1310 ng/mL (male CD-1 mouse, plasma; 1 mg/kg).
For `O=C1CCC(N2Cc3cc(C(=O)O)c(F)cc3C2=O)C(=O)N1` (stereo not shown), the C0 was 4920 ng/mL (male CD-1 mouse, plasma; 1 mg/kg).
`C/C(N)=N/C(=N\S(=O)(=O)c1ccc(C(F)(F)F)cc1)N1C[C@H](c2ccccc2)C(c2ccc(Cl)cc2)=N1` has a C0 of 5620 ng/mL (male C57BL/6 mouse, plasma; 10 mg/kg).
With `O=C(Nc1ccc(C(F)F)cc1)[C@H](CC1CCCCC1)Nc1nn2c(=O)ccnc2s1` the C0 was 1060 ng/mL (female nude mouse, plasma; 1 mg/kg).
For `CC[C@H](C)[C@H](NC(=O)[C@H](Cc1ccccc1)NC(=O)[C@H](CCC(=O)O)NC(=O)[C@H](CCCCN)NC(=O)[C@H](C)NC(=O)[C@H](C)NC(=O)[C@H](CCC(N)=O)NC(=O)CNC(=O)[C@H](CCC(=O)O)NC(=O)[C@H](CC(C)C)NC(=O)[C@H](Cc1ccc(O)cc1)NC(=O)[C@H](CO)NC(=O)[C@H](CO)NC(=O)[C@@H](NC(=O)[C@H](CC(=O)O)NC(=O)[C@H](CO)NC(=O)[C@@H](NC(=O)[C@H](Cc1ccccc1)NC(=O)[C@@H](NC(=O)CNC(=O)[C@H](CCC(=O)O)NC(=O)[C@H](C)NC(=O)[C@@H](N)Cc1c[nH]cn1)[C@@H](C)O)[C@@H](C)O)C(C)C)C(=O)N[C@@H](C)C(=O)N[C@@H](Cc1c[nH]c2ccccc12)C(=O)N[C@@H](CC(C)C)C(=O)N[C@H](C(=O)N[C@@H](CCCNC(=N)N)C(=O)NCC(=O)N[C@@H](CCCNC(=N)N)C(=O)NCC(=O)O)C(C)C`, the C0 was 1930 ng/mL (male CD-1 mouse, plasma; 1 mg/kg, single dose).
For `Cn1c2cc([S+](C)[O-])sc2c2cnn(Cc3cccc(N)c3)c(=O)c21` (stereo not shown), the C0 was 877 ng/mL (male BALB/c mouse, plasma; 1 mg/kg, single dose).
With `CCn1cc(-c2cc(Cn3ccnc3)cc3c2CCN([C@H](c2cc(OC)ccn2)C2CC2)C3=O)c(C(F)(F)F)n1` the C0 was 4430 ng/mL (male CD-1 mouse, plasma; 3 mg/kg).
For `O=C(O)c1ccc(/C=C2\SC(=S)N(Cc3cccc(C(F)(F)F)c3)C2=O)cc1`, the C0 was 12400 ng/mL (C57BL/6 mouse, blood; 5 mg/kg).

A few entries again:
For `O=C(O)c1ccc(/C=C2\SC(=S)N(Cc3cccc(C(F)(F)F)c3)C2=O)cc1`, the C0 was 12400 ng/mL (C57BL/6 mouse, blood; 5 mg/kg).
For `COc1cnc2cccc(N3CCc4c(cc(Cn5ccnc5)cc4-c4cn(C)nc4C(F)(F)F)C3=O)c2c1`, the C0 was 3390 ng/mL (male CD-1 mouse, plasma; 3 mg/kg).
